Results collected from several papers.
Protocols differ between the studies behind these lines.
Target: Adenosine receptor A2a (ADORA2A, Homo sapiens, UniProt P29274)

| SMILES | test | test system | conditions | measurement | value |
| --- | --- | --- | --- | --- | --- |
| Cn1ccc2cc(-n3c(=O)[nH]c4sc5c(c4c3=O)CCCC5)ccc21 | ligand displacement, radioligand |  | 10 µM | inhibition | 4% |
| C[Si](C)(C)C[C@H](CN)CC(=O)O | ligand displacement, radioligand |  | 250 µM | inhibition | -5% |
| CCC(=O)N(C)c1ccc(Cl)c(Cl)c1 | ligand displacement, radioligand |  | 10 µM | inhibition | < 10% |
| O=C1c2sc(-c3ccc(N4CCC(F)C4)nc3F)nc2CCN1c1cccnc1 (stereo not shown) | ligand displacement, radioligand |  | 1 µM | inhibition | 6% |
| CO[C@@H](C)c1c(NC(=O)Nc2cnc(-n3nccn3)c(C(F)(F)F)c2)cnc2sc(C)nc12 | ligand displacement, radioligand |  | 10 µM | inhibition | 30.7% |
| COc1ncc2nc(C)n(Cc3ncc(S(N)(=O)=O)cc3F)c2c1-c1ccccc1 | antagonist, cell-based |  | 10 µM | inhibition | 1.17% |
| OCC1OC(n2cnc3c(NCc4ccc(Br)s4)ncnc32)C(O)C1O (stereo not shown) | binding, radioligand binding | CHO cells |  | Hill coefficient | 0.72 |
| C[Si]1(C[C@H](CN)CC(=O)O)CCCC1 | ligand displacement, radioligand |  | 70 µM | inhibition | -8% |
| CC(=O)c1cnc(N)nc1N1CC[C@H]1c1nn2ccc(Cl)c2c(=O)n1-c1ccccc1 | ligand displacement, radioligand |  | 10 µM | inhibition | 21% |
| O=C(O)COc1cccc(NC(=O)c2cc(-c3cccc(F)c3)ccc2F)c1 | ligand displacement, radioligand |  | 10 µM | inhibition | 2% |
| COCC(=O)N1CCc2cc(-c3csc(NC(=O)c4cc(OC)cc(OC)c4)n3)ccc21 | ligand displacement, radioligand |  | 10 µM | inhibition | 24% |
| COc1ccc(C#CC2=C[C@H]3C[C@@]4(OC(=O)C=C24)[C@H]2CC[C@H](C(OC)OC)N32)cc1 | ligand displacement, radioligand |  | 10 µM | inhibition | 4% |
| Cc1[nH]nc2c1N=C(c1ccccc1Cl)c1cnc(N3CCOCC3)cc1N2 | ligand displacement |  | 10 µM | inhibition | 58% |

For quick reference, copied from above:
| SMILES | test | test system | conditions | measurement | value |
| --- | --- | --- | --- | --- | --- |
| O=C(O)COc1cccc(NC(=O)c2cc(-c3cccc(F)c3)ccc2F)c1 | ligand displacement, radioligand |  | 10 µM | inhibition | 2% |
| CO[C@@H](C)c1c(NC(=O)Nc2cnc(-n3nccn3)c(C(F)(F)F)c2)cnc2sc(C)nc12 | ligand displacement, radioligand |  | 10 µM | inhibition | 30.7% |
